Measured values collected from several papers.
Each numbered part is a random draw from the data of one study; scales do not carry over between parts. Numbers after ± are the reported error. Converted amounts (≈) assume the structure as drawn.
UniProt Q9VK33, sequence (whole entry, looked up): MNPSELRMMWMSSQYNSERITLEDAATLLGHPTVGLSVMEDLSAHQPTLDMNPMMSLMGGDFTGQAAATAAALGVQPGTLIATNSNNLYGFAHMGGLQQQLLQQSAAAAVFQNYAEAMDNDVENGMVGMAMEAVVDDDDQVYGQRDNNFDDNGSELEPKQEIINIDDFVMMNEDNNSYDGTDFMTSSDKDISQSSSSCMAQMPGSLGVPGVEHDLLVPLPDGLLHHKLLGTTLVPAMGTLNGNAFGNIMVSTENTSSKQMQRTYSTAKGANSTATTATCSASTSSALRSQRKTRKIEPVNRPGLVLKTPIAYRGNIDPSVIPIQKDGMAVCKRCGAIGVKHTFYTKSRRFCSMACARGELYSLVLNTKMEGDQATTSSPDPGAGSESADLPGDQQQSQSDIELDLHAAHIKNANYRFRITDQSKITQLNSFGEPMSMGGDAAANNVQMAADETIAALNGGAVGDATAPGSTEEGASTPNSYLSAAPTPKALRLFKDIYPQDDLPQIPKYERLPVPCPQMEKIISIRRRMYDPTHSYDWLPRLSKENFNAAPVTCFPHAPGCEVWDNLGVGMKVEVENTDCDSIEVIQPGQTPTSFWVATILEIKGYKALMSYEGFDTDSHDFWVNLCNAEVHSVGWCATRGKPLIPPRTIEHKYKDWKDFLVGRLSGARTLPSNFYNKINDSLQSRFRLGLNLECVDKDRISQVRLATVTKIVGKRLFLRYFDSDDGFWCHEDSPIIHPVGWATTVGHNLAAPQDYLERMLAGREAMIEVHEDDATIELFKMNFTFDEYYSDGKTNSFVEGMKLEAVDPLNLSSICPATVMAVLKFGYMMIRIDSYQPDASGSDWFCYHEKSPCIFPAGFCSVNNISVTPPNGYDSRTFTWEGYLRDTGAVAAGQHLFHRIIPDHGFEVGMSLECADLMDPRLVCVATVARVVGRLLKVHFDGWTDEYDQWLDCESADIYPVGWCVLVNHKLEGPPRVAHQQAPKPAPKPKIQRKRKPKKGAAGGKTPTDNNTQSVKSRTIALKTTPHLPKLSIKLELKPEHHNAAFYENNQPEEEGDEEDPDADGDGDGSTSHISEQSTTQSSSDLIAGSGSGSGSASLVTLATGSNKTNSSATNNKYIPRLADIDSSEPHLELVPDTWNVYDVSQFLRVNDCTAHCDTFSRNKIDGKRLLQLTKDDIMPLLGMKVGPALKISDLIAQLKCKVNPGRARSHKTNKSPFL
UniProt Q9R1M7, sequence (whole entry, unmodified, looked up): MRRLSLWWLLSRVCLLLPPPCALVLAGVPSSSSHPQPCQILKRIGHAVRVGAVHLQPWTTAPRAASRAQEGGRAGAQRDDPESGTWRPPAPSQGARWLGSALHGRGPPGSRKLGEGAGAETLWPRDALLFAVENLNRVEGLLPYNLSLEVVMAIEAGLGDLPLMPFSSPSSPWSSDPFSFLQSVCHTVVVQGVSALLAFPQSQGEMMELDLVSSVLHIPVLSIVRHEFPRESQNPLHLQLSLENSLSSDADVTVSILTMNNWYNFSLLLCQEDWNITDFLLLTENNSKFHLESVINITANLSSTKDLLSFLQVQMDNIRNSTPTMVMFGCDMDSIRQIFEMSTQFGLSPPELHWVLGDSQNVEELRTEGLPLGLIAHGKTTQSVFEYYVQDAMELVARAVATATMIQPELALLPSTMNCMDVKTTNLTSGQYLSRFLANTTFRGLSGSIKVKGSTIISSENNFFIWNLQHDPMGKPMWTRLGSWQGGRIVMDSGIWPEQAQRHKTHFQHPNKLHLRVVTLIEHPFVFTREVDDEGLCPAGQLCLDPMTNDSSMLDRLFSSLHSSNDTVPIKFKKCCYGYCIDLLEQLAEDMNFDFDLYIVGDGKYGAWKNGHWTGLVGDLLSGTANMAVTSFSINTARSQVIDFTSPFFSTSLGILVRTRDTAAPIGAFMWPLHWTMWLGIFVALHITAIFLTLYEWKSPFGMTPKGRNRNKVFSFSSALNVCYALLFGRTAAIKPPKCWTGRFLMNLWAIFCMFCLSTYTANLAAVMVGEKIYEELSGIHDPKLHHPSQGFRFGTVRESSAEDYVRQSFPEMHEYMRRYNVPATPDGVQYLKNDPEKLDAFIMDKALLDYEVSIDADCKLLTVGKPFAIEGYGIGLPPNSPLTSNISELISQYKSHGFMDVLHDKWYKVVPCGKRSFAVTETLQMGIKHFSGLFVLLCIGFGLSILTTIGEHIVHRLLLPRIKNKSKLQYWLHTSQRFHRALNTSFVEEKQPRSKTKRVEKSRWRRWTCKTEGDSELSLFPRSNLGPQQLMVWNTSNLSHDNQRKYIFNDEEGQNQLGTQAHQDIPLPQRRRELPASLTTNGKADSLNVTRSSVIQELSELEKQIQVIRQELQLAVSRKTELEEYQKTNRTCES

Block 1 — cell line: MV4-11 AML cells
The IC50 of `NC1CC1c1ccc(NC(=O)c2ccc3ccccc3c2)cc1` (stereo not drawn) is reported as 6.5 ± 0.7 µM.
`NC1CC1c1ccc(NC(=O)C(NC(=O)OCc2ccccc2)C(c2ccccc2)c2ccccc2)cc1` (stereo not drawn) gave an IC50 of 5 ± 0.8 µM.
With `NC1CC1c1ccc(NC(=O)Cc2ccccc2)cc1` (stereo not drawn) the IC50 was 49.8 ± 7.7 µM.

Block 2 — time: 18 h; temperature: 37 °C
Compound: CC[C@H](C)[C@H](NC(=O)[C@H](C)NC(=O)[C@H](CCC(=O)O)NC(=O)[C@H](Cc1c[nH]cn1)NC(=O)[C@@H](NC(=O)[C@H](CCCCN)NC(=O)[C@H](CCC(N)=O)NC(=O)[C@H](Cc1ccccc1)NC(=O)[C@@H](NC(=O)[C@H](CCCCN)NC(=O)[C@H](CCCCN)NC(=O)[C@H](CC(C)C)NC(=O)[C@H](C)NC(=O)[C@H](CC(N)=O)NC(=O)[C@@H](N)CC(C)C)C(C)C)[C@@H](C)CC)C(=O)N[C@@H](CCCCN)C(N)=O
It gave 8 µM (≈ 15 µg/mL) for MIC (Pseudomonas aeruginosa; broth microdilution; ATCC 27853).
The MIC was 4 µM (≈ 7.52 µg/mL) (Escherichia coli; CCARM 1238, resistant).
For Klebsiella pneumoniae; broth microdilution; ATCC 13883: MIC read 16 µM (≈ 30.1 µg/mL).
Staphylococcus aureus; MW2, resistant — MIC: 4 µM (≈ 7.52 µg/mL).

Other studies, line by line
`CC(C)[C@H](NC(=O)CNC(=O)CNC(=O)[C@@H](NC(=O)[C@H](C)NC(=O)[C@@H]1CCCN1C(=O)[C@H](C)NC(=O)[C@@H](N)CO)[C@@H](C)O)C(=O)N[C@@H](CCCC[N+](C)(C)C)C(=O)N[C@@H](CCCCN)C(=O)N1CCC[C@H]1C(=O)N[C@@H](Cc1c[nH]cn1)C(=O)N[C@@H](CCCNC(=N)N)C(=O)N[C@@H](Cc1ccc(O)cc1)C(=O)N[C@@H](CCCNC(=N)N)C(=O)N1CCC[C@H]1C(=O)NCC(N)=O` gave a Kd of greater than 1000 µM (Polycomb protein Sfmbt (Sfmbt, Drosophila melanogaster, UniProt Q9VK33); binding, ITC; Drosophila melanogaster protein).
For `C[C@@H](NCc1cc(Br)cc2[nH]c(=O)c(=O)[nH]c12)P(=O)(O)O`, inhibition read “no inhibition” (Glutamate receptor ionotropic, NMDA 1/3A (Grin1/Grin3a, Rattus norvegicus, UniProt P35439+Q9R1M7, F484A/T518L); ion current, inhibitor, two-electrode voltage clamp; Xenopus oocytes, GluN1 FA+TL/GluN3A; up to 30 µM).

Some of these lines once more (other studies, line by line):
`CC(C)[C@H](NC(=O)CNC(=O)CNC(=O)[C@@H](NC(=O)[C@H](C)NC(=O)[C@@H]1CCCN1C(=O)[C@H](C)NC(=O)[C@@H](N)CO)[C@@H](C)O)C(=O)N[C@@H](CCCC[N+](C)(C)C)C(=O)N[C@@H](CCCCN)C(=O)N1CCC[C@H]1C(=O)N[C@@H](Cc1c[nH]cn1)C(=O)N[C@@H](CCCNC(=N)N)C(=O)N[C@@H](Cc1ccc(O)cc1)C(=O)N[C@@H](CCCNC(=N)N)C(=O)N1CCC[C@H]1C(=O)NCC(N)=O` gave a Kd of greater than 1000 µM (Polycomb protein Sfmbt (Sfmbt, Drosophila melanogaster, UniProt Q9VK33); binding, ITC; Drosophila melanogaster protein).
For `C[C@@H](NCc1cc(Br)cc2[nH]c(=O)c(=O)[nH]c12)P(=O)(O)O`, inhibition read “no inhibition” (Glutamate receptor ionotropic, NMDA 1/3A (Grin1/Grin3a, Rattus norvegicus, UniProt P35439+Q9R1M7, F484A/T518L); ion current, inhibitor, two-electrode voltage clamp; Xenopus oocytes, GluN1 FA+TL/GluN3A; up to 30 µM).
